Published values of several laboratories.
Each numbered part is a random draw from the data of one study; scales do not carry over between parts. Positions count from the first letter of the parent shown.

Block 1
Target: PABPC1L2, full length, GST fusion (mouse, UniProt A0ABA7IW68)
Method: RNAcompete
Molecule type: RNA
Medium: in vitro
Concentration: 20 nM
Notes: 7-mer, probes averaged, single round
Reference: mean of 7-mers
Reading: higher = stronger binding
Target sequence (chain): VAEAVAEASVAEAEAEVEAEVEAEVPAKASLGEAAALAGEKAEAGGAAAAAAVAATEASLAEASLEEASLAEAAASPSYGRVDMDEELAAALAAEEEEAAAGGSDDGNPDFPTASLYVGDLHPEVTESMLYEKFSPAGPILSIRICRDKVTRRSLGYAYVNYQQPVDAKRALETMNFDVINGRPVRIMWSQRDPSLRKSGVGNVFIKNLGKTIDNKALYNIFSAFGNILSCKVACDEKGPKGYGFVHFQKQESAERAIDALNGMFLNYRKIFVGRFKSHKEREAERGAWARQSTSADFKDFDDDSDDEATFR
`AUUUAGU` has a 7-mer Z-score of 0.0787.
`GGCACUU` has a 7-mer Z-score of -0.0283.
`AUAAUCG` gave a 7-mer Z-score of -0.0591.
`UUGCCGC` has a 7-mer Z-score of -0.269.
With `AUAUGUC` the 7-mer Z-score was -0.197.
With `ACAAUCG` the 7-mer Z-score was 0.14.
With `ACUUUGC` the 7-mer Z-score was -0.421.
`AGCGACA` gave a 7-mer Z-score of 0.0533.

Block 2
Target: Prothrombin, mature alpha-thrombin (F2, Homo sapiens, UniProt P00734)
Method: aptamer microarray, sandwich
Molecule type: DNA with 2'F-ANA
Medium: in vitro
Concentration: 200 nM
Notes: whole 15-mer aptamer, many near background
Together with: Cy3 exosite-II aptamer, 400 nM
Reading: higher = stronger binding
Sequence: GGTTGGTGTGGTTGG
Under “mean fluorescence intensity”, `2'F-ANA at 1 2 3 6 7 8 10` is recorded as 97.4 a.u.
Under “mean fluorescence intensity”, `2'F-ANA at 1 4 5 6 8 11 12` is recorded as 84 a.u.
`2'F-ANA at 1 5 6 8 9 11 13`: “mean fluorescence intensity” 57.9 a.u.
Under “mean fluorescence intensity”, `2'F-ANA at 1 4 5 8 9` is recorded as 58.6 a.u.
For `2'F-ANA at 1 2 7 9 10 12 13 14 15`, “mean fluorescence intensity” read 48.7 a.u.
For `2'F-ANA at 2 5 7 8 10 11 13 15`, “mean fluorescence intensity” read 49.1 a.u.
For `2'F-ANA at 2 5 9 10 12 13`, “mean fluorescence intensity” read 79.1 a.u.
`2'F-ANA at 1 2 4 5 6 8 14` — result for “mean fluorescence intensity”: 46.7 a.u.

Block 3
Target: vanadate, free oxyanion
Method: microfluidic competitive inhibition
Medium: in vitro, cell-free expressed
Concentration: not given
Notes: derived from inhibition constants, unchanged parent 676 nM
Reading: lower = stronger binding
Starting sequence: PafA, mature enzyme, eGFP fusion (Elizabethkingia meningoseptica, UniProt Q9KJX5); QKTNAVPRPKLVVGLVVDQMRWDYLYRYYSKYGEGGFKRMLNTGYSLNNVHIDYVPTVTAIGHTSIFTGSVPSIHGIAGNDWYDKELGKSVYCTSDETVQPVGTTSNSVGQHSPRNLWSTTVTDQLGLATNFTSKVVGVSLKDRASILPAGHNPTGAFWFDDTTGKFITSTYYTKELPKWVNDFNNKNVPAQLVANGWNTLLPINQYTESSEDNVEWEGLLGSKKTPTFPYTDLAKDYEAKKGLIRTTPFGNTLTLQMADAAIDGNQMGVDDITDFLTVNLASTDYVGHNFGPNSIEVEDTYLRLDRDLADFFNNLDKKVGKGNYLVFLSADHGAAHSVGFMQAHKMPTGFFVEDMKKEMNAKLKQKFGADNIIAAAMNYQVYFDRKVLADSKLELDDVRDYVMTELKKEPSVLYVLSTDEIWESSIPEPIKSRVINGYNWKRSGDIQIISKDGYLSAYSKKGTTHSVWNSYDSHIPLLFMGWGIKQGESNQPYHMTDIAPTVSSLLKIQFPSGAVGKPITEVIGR
`N470G`: “oxyanion analog dissociation constant” 590 nM.
Under “oxyanion analog dissociation constant”, `N491V` is recorded as 540 nM.
For `D23G`, “oxyanion analog dissociation constant” read 1.02 µM.
Under “oxyanion analog dissociation constant”, `S119V` is recorded as 608 nM.
Under “oxyanion analog dissociation constant”, `S223G` is recorded as 644 nM.
`Q381V` — result for “oxyanion analog dissociation constant”: 970 nM.
`F276V`: “oxyanion analog dissociation constant” 519 nM.
`S108V` — result for “oxyanion analog dissociation constant”: 663 nM.
`G156A`: “oxyanion analog dissociation constant” 464 nM.
`Y32V` — result for “oxyanion analog dissociation constant”: 705 nM.
`M347G`: “oxyanion analog dissociation constant” 700 nM.
For `L389G`, “oxyanion analog dissociation constant” read 726 nM.
`L394G` — result for “oxyanion analog dissociation constant”: 835 nM.
Under “oxyanion analog dissociation constant”, `I168V` is recorded as 609 nM.
For `I485G`, “oxyanion analog dissociation constant” read 1.3 µM.
For `M20G`, “oxyanion analog dissociation constant” read 452 nM.
For `G110V`, “oxyanion analog dissociation constant” read 2.28 µM.
`Y380G` — result for “oxyanion analog dissociation constant”: 680 nM.
`L478G` — result for “oxyanion analog dissociation constant”: 387 nM.
`K31G`: “oxyanion analog dissociation constant” 671 nM.
`K242V` — result for “oxyanion analog dissociation constant”: 589 nM.
`T247G`: “oxyanion analog dissociation constant” 584 nM.
`N188V`: “oxyanion analog dissociation constant” 545 nM.
`G288V`: “oxyanion analog dissociation constant” 803 nM.
`V91G`: “oxyanion analog dissociation constant” 1.75 µM.

Block 4
Target: CCNF, cyclin fold, Cln2 fusion (human)
Method: yeast growth competition, sequencing
Medium: yeast
Notes: strong parent motif
Reference: not given
Reading: higher = stronger binding
Starting sequence: viral docking peptide; KGVKRKLFAEDSS
`KGVKRKLFGEDSS [A9G]` — result for “normalised enrichment score”: 8.04.
`KGVKRKLKAEDSS [F8K]`: “normalised enrichment score” 0.976.
For `KGVKRKLPAEDSS [F8P]`, “normalised enrichment score” read 0.287.
`KGVKRKLFHEDSS [A9H]`: “normalised enrichment score” 7.93.
Under “normalised enrichment score”, `KGVKRDLFAEDSS [K6D]` is recorded as 0.851.

Block 5
Target: CREB5, bZIP domain (human)
Method: DHFR protein complementation
Medium: yeast
Notes: single substitutions, most at no-binding floor
Reference: wild-type JUN-FOS pair
Reading: higher = stronger binding
Starting sequence: JUN, bZIP domain (human); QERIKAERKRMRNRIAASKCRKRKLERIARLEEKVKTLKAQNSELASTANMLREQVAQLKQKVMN; partner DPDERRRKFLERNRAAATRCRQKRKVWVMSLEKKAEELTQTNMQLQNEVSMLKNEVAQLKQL
`L45Q` has a binding fitness of -1.5 natural log.
`E33Y` has a binding fitness of -0.944 natural log.
For `L38K`, the binding fitness was -1.31 natural log.
`A40Y` has a binding fitness of -0.621 natural log.
`E32T` gave a binding fitness of -0.516 natural log.
For `Q41G`, the binding fitness was -1.1 natural log.
`R30G` has a binding fitness of -0.267 natural log.
`R30C` gave a binding fitness of -0.306 natural log.

Further values, each from its own experiment
For C[C@]12CC[C@@H]3c4ccc(OC(=O)N(CCCl)CCCl)cc4CC[C@H]3[C@@H]1CC[C@@H]2O, the nuclei count was -0.28 z-score (mouse MPNST tumor cells; high-content nuclear imaging, refers to: cell number; 10 µM, 12 h, mean of 2 replicates; reference: plate mean, higher = more cells).
`PhoQ, residues 284 288 289 292 302 303 AGGCYF` gave a fold induction of 15.6 (PhoP, residues 12 14 15 18 19 GQALL (Escherichia coli, UniProt P23836); Sort-seq, refers to: YFP reporter; E. coli; PhoQ-PhoP variant library, together with: 10 µM Mg2+; reference: high Mg2+ state, higher = stronger signaling).

Repeated from above (block 1):
`UUGCCGC` has a 7-mer Z-score of -0.269.
With `ACUUUGC` the 7-mer Z-score was -0.421.
With `AUAUGUC` the 7-mer Z-score was -0.197.
With `ACAAUCG` the 7-mer Z-score was 0.14.
`AUAAUCG` gave a 7-mer Z-score of -0.0591.
`AGCGACA` gave a 7-mer Z-score of 0.0533.
`GGCACUU` has a 7-mer Z-score of -0.0283.
`AUUUAGU` has a 7-mer Z-score of 0.0787.
